Measured values collected from several papers.
Every numbered part comes from another study and shows a few of its results, in no order. Changes are numbered by the printed parent chain.

Sample 1
Target: RNA binding protein fox-1 homolog 2, RRM domain, GST-SBP tag (RBFOX2, Homo sapiens, UniProt O43251-10, residues 100-194)
Method: RNA Bind-n-Seq
Form: RNA
Medium: in vitro
Concentration: 365 nM
Setting: natural RNA segment, single round, ends assumed
Reference: no-protein control
Reading: higher = stronger binding
Constant ends, left off below: GGGAGUUCUACAGUCCGACGAUC … UGGAAUUCUCGGGUGCCAA
Target sequence (chain): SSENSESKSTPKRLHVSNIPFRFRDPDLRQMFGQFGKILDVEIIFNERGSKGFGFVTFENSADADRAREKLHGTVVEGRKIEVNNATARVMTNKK
Strand | RBNS enrichment (R)
CUGGUGUGAGUUGGGGUAGGGUCCCCAGAGUCUCAGGAAAGAAGCUAGAUCACACUGAUUCUCCUGCCGUGGAUAUGAGUUAAAACCAAGUGGUAAAGCACUUGGAUUCA | 0.378
AUAGCUCCUGGACCCAAGCCCAAGGCCCAGCCUGGGACAAGGCUCCGAGGGUCGGCUGGCCGGAGCUAUUUUUACCUCCCGCCUCCCCUGCUGGUCCCCCCACCUGACGU | 0.499
AUAAGUGGUGCCAUUGGAAUGUCAGCAUUGCUUGAGUGUCAUGCUGAGGGAUGGUCCUGACAGUAAACAGCGGGAAGACACCGGGAGCAUUGUAAUCGCUUGGUUAAUUG | 12.3
UCAUGAUAAUUUGUCAUAACUCAGUAGCAUGACCUGCCCCUAGAAGGUAGUUAAAAUUUGUAAAUGCUAAGGCGUUGCCAGGUCCUAAUGAGUCAGACCUGUACUACUGA | 0.486
CCUCUGUGUGUGAGGCCCUUCAUCUAAGUGAUUGUGUAUUCAGUUUAAUUCUCAUUAUAUUUCUAUACUGAAAGAAGAUUUUUAACGAAGGGAAAAACAACAGCAAUAAC | 0.555
GACAUGUGCGACUCUUAAGAAAGCCAUACUUAAUGGUGGUGGUUUUUUUUAGAUCUUAUAUUGUGUUUUGUAUGCAGCCCUUUUAGAACUACUUGUAGUGAGGGUGCUGU | 0.333
UUUACAGCUCCUUUAAUAAAAUGUGUCAGUAAUUUUAAGGUUUAUAGUUCCCUCAACACAAUUGCUAAUGCAGAAUAGUGUAAAAUGCGCUUCAAGAAUGUUGAUGAUGA | 1.13
GUGCAGGGCCUUGUGUUGUGUGGUUUUACUUGGGCUGGGGGUGGUUCUUGCGGUUUCUUCCAUUGCUUCUAGGCAGAGCCAAGGACUCAUCCUCACCAUCCAUACAUGGG | 2.48

Sample 2
Target: CCNB3, cyclin fold, Cln2 fusion (human)
Method: yeast growth competition, sequencing
Medium: yeast
Setting: weak parent motif
Reference: not given
Reading: higher = stronger binding
Starting sequence: CDC6 docking peptide (human); TLKGRRLVFDNQL; partner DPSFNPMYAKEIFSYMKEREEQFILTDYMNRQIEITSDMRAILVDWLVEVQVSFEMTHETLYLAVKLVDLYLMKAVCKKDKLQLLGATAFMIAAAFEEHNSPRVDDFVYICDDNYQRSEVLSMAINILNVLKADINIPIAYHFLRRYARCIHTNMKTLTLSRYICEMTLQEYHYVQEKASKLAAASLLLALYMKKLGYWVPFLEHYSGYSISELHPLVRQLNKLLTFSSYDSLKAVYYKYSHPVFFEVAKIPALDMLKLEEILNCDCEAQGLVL
Change | normalised enrichment score
LLKGRRLVFDNQL [T1L] | 0.0506
TLKGERLVFDNQL [R5E] | 0.0465
TLKGRRLVTDNQL [F9T] | 0.153
TLKGRRLVFDIQL [N11I] | 0.175
TLKGRRLVFDNNL [Q12N] | 0.14
TDKGRRLVFDNQL [L2D] | 0.0117
TLSGRRLVFDNQL [K3S] | 0.171
TLKGRREVFDNQL [L7E] | 0.291
TLHGRRLVFDNQL [K3H] | 0.00536
TLKGRWLVFDNQL [R6W] | -0.359
ILKGRRLVFDNQL [T1I] | 0.186
TLKGRRLVFDNQK [L13K] | -0.324
TLKGRTLVFDNQL [R6T] | 0.454
TLKGRGLVFDNQL [R6G] | -0.143
TLKGRRLVFDRQL [N11R] | 0.459

Sample 3
Target: Histone acetyltransferase KAT6A, winged helix 1, GST fusion (KAT6A, Homo sapiens, UniProt Q92794, residues 1-85)
Method: protein binding microarray
Form: double-stranded DNA, one strand shown
Medium: in vitro
Concentration: not given
Setting: 8-mer, flanks averaged, mean of 2 arrays, mostly near background
Reference: not given
Reading: higher = stronger binding
Residues (chain): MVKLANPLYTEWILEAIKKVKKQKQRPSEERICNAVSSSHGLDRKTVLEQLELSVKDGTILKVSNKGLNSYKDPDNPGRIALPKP
Strand | E-score
CATAGAGG | -0.155
GAAATCGA | 0.0722
CGGGACGA | 0.104
TCATGAGA | -0.0862
ATCAGACA | -0.13
CTTGTTTC | -0.278
CAACCTTG | -0.000535
ATCCAGTC | -0.0875
TTCCCGAA | 0.0409
ACTCATAA | -0.0765
ATAACAAA | -0.196
ATTGTCGA | -0.212
GCCTTCGC | 0.094
GGAGTTAC | 0.0438

Further values, each from its own experiment
Molecule | target | assay | test system | setting | scale | endpoint | value
PhoQ, residues 284 288 289 292 302 303 GNNTDL | PhoP, residues 12 14 15 18 19 NQAHL (Escherichia coli, UniProt P23836) | Sort-seq, measured: YFP reporter | E. coli | PhoQ-PhoP variant library, together with: 10 µM Mg2+ | reference: high Mg2+ state, higher = stronger signaling | fold induction | 8.11
